{"data": "Measured values from different studies", "note": "Several values in a cell are separate wells, animals, samples, runs or records. Numbers after ± are the reported error.", "sequence of UniProt Q9NX63 (whole entry, looked up)": "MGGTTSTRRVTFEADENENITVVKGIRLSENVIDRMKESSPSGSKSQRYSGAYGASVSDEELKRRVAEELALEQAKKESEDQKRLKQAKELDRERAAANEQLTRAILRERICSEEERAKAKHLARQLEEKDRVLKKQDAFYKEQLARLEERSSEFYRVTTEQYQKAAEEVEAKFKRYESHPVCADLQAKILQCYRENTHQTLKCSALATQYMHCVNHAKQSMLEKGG", "sequence of UniProt Q6PCB6 (whole entry, looked up)": "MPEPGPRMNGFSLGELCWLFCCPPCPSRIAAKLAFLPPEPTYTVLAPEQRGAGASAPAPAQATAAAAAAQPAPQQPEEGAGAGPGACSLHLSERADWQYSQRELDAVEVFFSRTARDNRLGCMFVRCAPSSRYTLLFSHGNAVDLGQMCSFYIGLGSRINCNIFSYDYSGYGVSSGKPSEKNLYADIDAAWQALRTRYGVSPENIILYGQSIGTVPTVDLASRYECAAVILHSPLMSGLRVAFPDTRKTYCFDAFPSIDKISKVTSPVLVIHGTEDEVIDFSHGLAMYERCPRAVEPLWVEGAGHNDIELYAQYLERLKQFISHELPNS"}
{"SMILES": "CC[C@H](C)C[C@H](C)CCCCCCCCC(=O)N[C@H]1C[C@@H](O)[C@@H](NCCN)NC(=O)[C@@H]2[C@@H](O)CCN2C(=O)[C@H]([C@H](O)CCN)NC(=O)[C@H]([C@H](O)[C@@H](O)c2ccc(O)cc2)NC(=O)[C@@H]2C[C@@H](O)CN2C(=O)[C@H]([C@@H](C)O)NC1=O", "assay": "calcein leakage", "system": "DOPC/CHOL liposomes", "conditions": "concentration not given, added: 20 wt% PEG-8000", "measurement": "fusion time constant", "value": "7 ± 2 min"}
{"SMILES": "C[C@@H](O)[C@@H](CO)NC(=O)[C@@H](CCCNC(=N)N)NC(=O)[C@@H]1CCCN1C(=O)[C@@H]1CSSC[C@H](NC(=O)[C@H](Cc2ccccc2)NC(=O)CN2CCN(CC(=O)O)CCN(CC(=O)O)CCN(CC(=O)O)CC2)C(=O)N[C@@H](Cc2ccc(O)cc2)C(=O)N[C@@H](Cc2ccccc2)C(=O)N[C@@H](CCC(N)=O)C(=O)N[C@@H](CC(N)=O)C(=O)N1 [gallium-68 labelled]", "system": "Wistar rat, healthy, urinary bladder", "conditions": "intravenous, 8 MBq, 60 min, mean", "measurement": "tissue uptake", "value": "2.11 %ID/g"}
{"SMILES": "Clc1cc2c(cc1Cl)Oc1cc(Cl)c(Cl)cc1O2", "assay": "RNA-Seq, measured: Cyp4a2", "system": "female Sprague-Dawley rat, liver", "conditions": "dose not given", "scale": "reference: vehicle", "measurement": "mRNA level", "value": "2 fold"}
{"SMILES": "CCCCC1(CCCC)CN(c2ccccc2)c2cc(SC)c(OCC(=O)N[C@@H](C(=O)NCC(=O)O)c3ccccc3)cc2S(=O)(=O)C1", "assay": "measured: HDL cholesterol", "system": "human, serum", "conditions": "20 mg once daily, day 2", "measurement": "serum HDL-C", "value": "51.8 mg/dL"}
{"SMILES": "O=C(c1ccc(Cl)cc1)N1CCN2C(=O)N(OC(=O)N3CCOc4ccccc43)C(=O)C2C1 (stereo not shown)", "target or system": "ABHD17C (Homo sapiens, UniProt Q6PCB6)", "assay": "enzyme activity, inhibitor, MS-based ABPP", "system": "SW-620 in situ", "conditions": "10 µM, 2 h, 37 °C", "scale": "reference: compound over DMSO, lower = stronger inhibition", "measurement": "median ratio", "value": 1.08}
{"SMILES": "CS(=O)(=O)c1ccc(-c2nnc(/C=C/c3nnc(-c4ccc(C#N)cc4)o3)n2-c2ccccc2Cl)nc1", "assay": "RNA-seq GSEA, measured: HALLMARK_UNFOLDED_PROTEIN_RESPONSE", "system": "organoids, small intestinal, Apc Q1405X, mouse", "conditions": "dose not given, wild-type organoids", "scale": "reference: DMSO, direction not given", "measurement": "normalized enrichment score", "value": -2.06}
{"SMILES": "C[C@H]1CN(c2n[nH]c3nc(N[C@H]4CC[C@H](NS(=O)(=O)CCC(F)(F)F)CC4)ncc23)CCO1", "target or system": "MICOS complex subunit MIC19 (Homo sapiens, UniProt Q9NX63)", "assay": "Kinobeads competition, measured: CHCHD3", "conditions": "20 µM, unit not given", "scale": "reference: vehicle", "measurement": "remaining binding", "value": 1.22}
{"SMILES": "CCCCCCCCCC(=O)N[C@@H](Cc1c[nH]c2ccccc12)C(=O)N[C@H](CC(N)=O)C(=O)N[C@@H](CC(=O)O)C(=O)N[C@@H]1C(=O)NCC(=O)N[C@@H](CCCN)C(=O)N[C@@H](CC(=O)O)C(=O)N[C@H](C)C(=O)N[C@@H](CC(=O)O)C(=O)NCC(=O)N[C@H](CO)C(=O)N[C@@H]([C@H](C)CC(=O)O)C(=O)N[C@@H](CC(=O)c2ccccc2N)C(=O)O[C@@H]1C", "assay": "calcein leakage", "system": "DOPC/DOPG/CHOL liposomes", "conditions": "concentration not given, added: 20 wt% PEG-8000", "measurement": "fusion time constant", "value": "24 ± 10 min"}
{"SMILES": "CC[C@H](C)[C@@H]1NC(=O)[C@@H]2CCCN2C(=O)[C@H](CC(C)C)NC(=O)[C@H](CC(C)C)NC(=O)CNC(=O)[C@@H](NC(=O)[C@@H](NC(=O)[C@H](CC(=O)O)NC(=O)CNC(=O)[C@@H](NC(=O)[C@H](C)NC(=O)CNC(=O)[C@H](CCCCN)NC(=O)[C@H](CC(C)C)NC(=O)[C@H](CC(C)C)NC(=O)[C@H](CCCCN)NC(=O)CNC(=O)[C@@H](NC(=O)[C@@H](N)CC(C)C)C(C)C)C(C)C)C(C)C)CSSC[C@@H](C(=O)O)NC1=O", "assay": "RNA-seq, measured: Smarca2", "system": "mouse, traumatic brain injury model, frontal cortex and hippocampus", "conditions": "dose not given", "scale": "reference: TBI alone", "measurement": "log2 fold change", "value": 0.466}
{"SMILES": "CN1CCN(S(=O)(=O)c2cc([N+](=O)[O-])ccc2N(CCOS(C)(=O)=O)CCOS(C)(=O)=O)CC1", "system": "NSG mice, sample CD PDX", "conditions": "intraperitoneal, 25 mg/kg weekly x3", "scale": "reference: treated over vehicle", "measurement": "EFS ratio (T/C)", "value": 8.9}
{"SMILES": "C[C@]12CC[C@H](O)C[C@H]1CC[C@@H]1[C@@H]2CC[C@]2(C)[C@@H](c3ccc(=O)oc3)CC[C@]12O", "system": "female nude mouse LCC2 xenograft", "conditions": "0.5 mg/kg, day 9, tamoxifen-resistant", "measurement": "tumour volume", "value": "81.5 mm3 and 57.2 mm3 and 44.6 mm3 and 51.9 mm3 and 45.1 mm3 and 53.5 mm3 and 53.8 mm3"}
{"SMILES": "COc1cc(Nc2ncc(F)c(Nc3ccc4c(n3)NC(=O)C(C)(C)O4)n2)cc(OC)c1OC", "target or system": "Phosphatidylinositol 3,4,5-trisphosphate 3-phosphatase and dual-specificity protein phosphatase PTEN (PTEN, Homo sapiens, UniProt P60484)", "conditions": "MMAC1", "measurement": "IC50", "value": "> 10 µM"}
{"SMILES": "COc1cc(CCC[P+](c2ccccc2)(c2ccccc2)c2ccccc2)c(OC)c2c1OCO2.[I-]", "target or system": "NCI/ADR-RES", "assay": "SRB", "measurement": "Log10TGI", "value": "> -4 log M"}
{"SMILES": "O=S(=O)(O)C(F)(F)C(F)(F)C(F)(F)C(F)(F)C(F)(F)C(F)(F)C(F)(F)C(F)(F)F", "assay": "RNA-seq pathway analysis, measured: cholesterol biosynthesis genes", "system": "liver spheroids", "conditions": "concentration not given, 24 h and 10 d", "measurement": "gene expression", "value": "decreased"}
{"SMILES": "CC[C@H](C)[C@H](NC(=O)[C@H](Cc1ccccc1)NC(=O)[C@H](CCC(=O)O)NC(=O)[C@H](CCCNC(=N)N)NC(=O)[C@H](C)NC(=O)[C@H](C)NC(=O)[C@H](CCC(N)=O)NC(=O)[C@H](CCC(=O)O)NC(=O)[C@H](CCC(=O)O)NC(=O)[C@H](CC(C)C)NC(=O)[C@H](Cc1ccc(O)cc1)NC(=O)[C@H](CO)NC(=O)[C@H](CO)NC(=O)[C@@H](NC(=O)[C@H](CC(=O)O)NC(=O)[C@H](CO)NC(=O)[C@@H](NC(=O)[C@H](Cc1ccccc1)NC(=O)[C@@H](NC(=O)CNC(=O)[C@H](CCC(=O)O)NC(=O)[C@H](C)NC(=O)CCc1c[nH]cn1)[C@@H](C)O)[C@@H](C)O)C(C)C)C(=O)N[C@@H](C)C(=O)N[C@@H](Cc1c[nH]c2ccccc12)C(=O)N[C@@H](CC(C)C)C(=O)N[C@H](C(=O)N[C@@H](CCCNC(=N)N)C(=O)NCC(=O)N[C@@H](CCCNC(=N)N)C(=O)N[C@@H](CCCCNC(=O)COCCOCCNC(=O)COCCOCCNC(=O)CC[C@H](NC(=O)CCCCCCCCCCCCCCCCC(=O)O)C(=O)O)C(=O)NCC(=O)NCC(=O)N[C@@H](CO)C(=O)N[C@@H](CCCCNc1c(NCCCCCN(O)C(=O)CCC(=O)NCCCCCN(O)C(=O)CCC(=O)NCCCCCN(O)C(C)=O)c(=O)c1=O)C(=O)O)C(C)C [zirconium-89 labelled]", "assay": "gamma counting", "system": "rat, skin of neck", "conditions": "subcutaneous, 3 nmol/kg, 72 h", "measurement": "tissue uptake", "value": "0.14 %ID/g"}
{"SMILES": "COc1ccc(CCC2CCCC(CCc3ccc(OC)cc3)N2C[C@@H](O)CO)cc1.Cl (stereo in doubt)", "system": "rat striatal slices", "conditions": "10 µM, 30 min, no methamphetamine", "measurement": "DOPAC overflow", "value": "159 ± 29.4 pg/30 mL/mg"}
{"SMILES": "C[C@H](N)Cn1ncc2ccc3c(c21)CCCO3", "assay": "DOM stimulus generalization", "system": "rat trained on DOM", "conditions": "intraperitoneal, training dose 1.0 mg/kg DOM", "measurement": "ED50", "value": "0.18 µmol/kg"}
{"SMILES": "[131I-].[Na+]", "system": "hyperthyroidism patients", "conditions": "185 MBq, 6 months, long-term follow-up", "measurement": "hypothyroid patients", "value": "48%"}
{"SMILES": "C[C@H]1O[C@@H](O[C@H]2CC[C@@]3(C)[C@@H](CC[C@]4(C)[C@@H]3C=C[C@]35OC[C@@]6(CCC(C)(C)C[C@H]63)[C@@H](O)C[C@]54C)[C@]2(C)CO)[C@H](O)[C@@H](O[C@@H]2O[C@H](CO)[C@@H](O)[C@H](O)[C@H]2O)[C@H]1O", "system": "mouse, no ethanol, AAV8-TBG-Null, liver", "conditions": "dose not given, high dose", "measurement": "NAD+/NADH ratio", "value": "3.47 and 2.9 and 3.16 and 2.53"}
{"SMILES": "C[C@]1(CO)Cc2ncn(-c3ccc(C#N)c(Cl)c3)c2C(=O)O1", "system": "healthy men, plasma", "conditions": "dose not given, single and multiple doses", "measurement": "time to marked plasma aldosterone decrease", "value": "1 to 2 h"}
{"SMILES": "Cc1c(C(=O)O)ccc2c3n(nc12)[C@@H]1[C@H](C3)N(CC2CC2)[C@@]2(C(=O)Nc3cc(Cl)ccc32)[C@H]1c1cccc(Cl)c1F", "system": "Rag1-/-Abcb1a-/-Abcg2-/- mouse, MDM2-amplified orthotopic PDX", "conditions": "2 mg/kg", "scale": "reference: vehicle", "measurement": "survival extension", "value": "> 5 fold"}
{"SMILES": "COc1c(CCC[P+](c2ccccc2)(c2ccccc2)c2ccccc2)cc2c(c1OC)OCO2.[I-]", "target or system": "T47D", "assay": "SRB", "measurement": "LC50", "value": "> -4 log M"}
{"SMILES": "Cc1cn([C@H]2O[C@@H](CO[P@@](=O)(N[C@@H](C)C(=O)OC(C)C)Oc3ccccc3)[C@H](O)[C@H]2F)c(=O)[nH]c1=O", "assay": "measured: detectable HBV DNA", "system": "adults with chronic hepatitis B", "conditions": "25 or 50 mg, week 12, after treatment discontinuation", "measurement": "virologic relapse", "value": "56%"}
{"SMILES": "COc1cc2c(Oc3ccc4[nH]c(C)cc4c3F)ccnc2cc1OCC1(N)CC1", "system": "paediatric recurrent refractory sarcoma", "conditions": "12 mg", "measurement": "grade 3 TBIL elevation", "value": "9.1%"}
{"SMILES": "Cc1cn(-c2cc(NC(=O)c3ccc(C)c(Nc4nccc(-c5cccnc5)n4)c3)cc(C(F)(F)F)c2)cn1", "system": "human patients", "conditions": "dose not given, 12 months vs baseline, unit not given", "scale": "reference: placebo", "measurement": "ADAS-Cog maze errors change", "value": 0}
{"SMILES": "Nc1ncnc2c1ncn2[C@@H]1O[C@@H]2COP(=O)(O)O[C@H]3[C@@H](O)[C@H](n4cnc5c(=O)[nH]cnc54)O[C@@H]3COP(=O)(O)O[C@H]2[C@H]1O", "target or system": "HFF-1", "assay": "RNA sequencing, measured: OAS antiviral response", "conditions": "upregulated pathway", "scale": "reference: Zika virus alone", "measurement": "pathway fold enrichment", "value": 30.6}
{"SMILES": "O=C(O)/C=C/C(=O)O.Oc1cccc2[nH]cc(CCNCc3ccccc3)c12", "system": "C57BL/6J mice", "conditions": "subcutaneous, 1 mg/kg", "scale": "reference: pre-session baseline", "measurement": "body temperature change", "value": "0.2 ± 0.1 °C"}
{"SMILES": "CCCCCCCCCCCCCCCC(=O)N[C@H]1C[C@@H](O)[C@@H](O)NC(=O)[C@@H]2[C@@H](O)[C@@H](C)CN2C(=O)[C@H]([C@@H](C)O)NC(=O)[C@H]([C@H](O)[C@@H](O)c2ccc(O)cc2)NC(=O)[C@@H]2C[C@@H](O)CN2C(=O)[C@H]([C@@H](C)O)NC1=O", "assay": "calcein leakage", "system": "DOPC/CHOL liposomes", "conditions": "concentration not given, added: 20 wt% PEG-8000", "measurement": "fusion time constant", "value": "13 ± 6 min"}
{"note": "Repeated from above:"}
{"SMILES": "O=C(O)/C=C/C(=O)O.Oc1cccc2[nH]cc(CCNCc3ccccc3)c12", "system": "C57BL/6J mice", "conditions": "subcutaneous, 1 mg/kg", "scale": "reference: pre-session baseline", "measurement": "body temperature change", "value": "0.2 ± 0.1 °C"}
{"SMILES": "CCCCCCCCCCCCCCCC(=O)N[C@H]1C[C@@H](O)[C@@H](O)NC(=O)[C@@H]2[C@@H](O)[C@@H](C)CN2C(=O)[C@H]([C@@H](C)O)NC(=O)[C@H]([C@H](O)[C@@H](O)c2ccc(O)cc2)NC(=O)[C@@H]2C[C@@H](O)CN2C(=O)[C@H]([C@@H](C)O)NC1=O", "assay": "calcein leakage", "system": "DOPC/CHOL liposomes", "conditions": "concentration not given, added: 20 wt% PEG-8000", "measurement": "fusion time constant", "value": "13 ± 6 min"}
